Experimental data gathered from unrelated publications.
Each numbered part is a random draw from the data of one study; scales do not carry over between parts. Positions count from the first letter of the parent shown.
Chain of UniProt P42681 (whole entry, looked up): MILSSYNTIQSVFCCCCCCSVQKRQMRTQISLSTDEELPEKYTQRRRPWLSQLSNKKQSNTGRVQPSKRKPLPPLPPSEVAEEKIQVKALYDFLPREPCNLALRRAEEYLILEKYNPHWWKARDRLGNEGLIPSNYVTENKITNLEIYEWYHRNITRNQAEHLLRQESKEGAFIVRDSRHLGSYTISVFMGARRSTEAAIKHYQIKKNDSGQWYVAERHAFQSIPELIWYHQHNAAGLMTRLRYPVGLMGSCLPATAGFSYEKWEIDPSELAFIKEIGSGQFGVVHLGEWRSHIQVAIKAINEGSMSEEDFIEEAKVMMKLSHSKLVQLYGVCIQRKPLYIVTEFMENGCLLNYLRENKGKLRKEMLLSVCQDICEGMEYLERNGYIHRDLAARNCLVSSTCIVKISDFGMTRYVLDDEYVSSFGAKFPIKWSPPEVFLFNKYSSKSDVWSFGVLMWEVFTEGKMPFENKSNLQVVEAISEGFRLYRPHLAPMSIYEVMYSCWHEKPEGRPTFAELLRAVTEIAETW

Block 1
Target: ABI1, truncated, D143A, DHFR fusion (Arabidopsis thaliana, UniProt P49597)
Method: DHFR PCA, dose-response
Sample: yeast
Setting: Hill fit, mean, not affinity
Added: (+)-ABA, dose series
Reading: lower = more sensitive
Starting sequence: PYL1, truncated, DHFR fusion (Arabidopsis thaliana, UniProt Q8VZS8); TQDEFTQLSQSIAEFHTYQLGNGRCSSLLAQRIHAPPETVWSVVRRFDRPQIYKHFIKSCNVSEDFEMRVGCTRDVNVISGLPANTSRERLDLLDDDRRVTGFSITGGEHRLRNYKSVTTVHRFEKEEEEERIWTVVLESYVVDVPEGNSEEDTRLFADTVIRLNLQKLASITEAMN
Change	ABA EC50 [µM]
V100F	99.3
R49M	2.4
A35W	822
D92T	17.3
G148P	34
R24K	2.27
V142I	1.64
S59Y	19.9

Block 2
Target: ATF5, bZIP domain (human)
Method: DHFR protein complementation
Sample: yeast
Setting: single substitutions, most at no-binding floor
Relative to: wild-type JUN-FOS pair
Reading: higher = stronger binding
Starting sequence: JUN, bZIP domain (human); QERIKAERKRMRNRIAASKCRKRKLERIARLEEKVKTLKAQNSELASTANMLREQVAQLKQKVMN; partner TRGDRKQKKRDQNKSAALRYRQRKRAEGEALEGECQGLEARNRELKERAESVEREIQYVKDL
Change	binding fitness [natural log]
A46R	-1.37
T48Q	-1.5
M51V	-1.49
E33I	-1.22
L59R	-1.56
E32N	-1.5
R30L	-1.45
V56P	-1.47

Block 3
Target: Ras GTPase-activating protein-binding protein 1, RRM domain (G3BP1, Homo sapiens, UniProt Q13283)
Chain of UniProt Q13283 (whole entry, looked up): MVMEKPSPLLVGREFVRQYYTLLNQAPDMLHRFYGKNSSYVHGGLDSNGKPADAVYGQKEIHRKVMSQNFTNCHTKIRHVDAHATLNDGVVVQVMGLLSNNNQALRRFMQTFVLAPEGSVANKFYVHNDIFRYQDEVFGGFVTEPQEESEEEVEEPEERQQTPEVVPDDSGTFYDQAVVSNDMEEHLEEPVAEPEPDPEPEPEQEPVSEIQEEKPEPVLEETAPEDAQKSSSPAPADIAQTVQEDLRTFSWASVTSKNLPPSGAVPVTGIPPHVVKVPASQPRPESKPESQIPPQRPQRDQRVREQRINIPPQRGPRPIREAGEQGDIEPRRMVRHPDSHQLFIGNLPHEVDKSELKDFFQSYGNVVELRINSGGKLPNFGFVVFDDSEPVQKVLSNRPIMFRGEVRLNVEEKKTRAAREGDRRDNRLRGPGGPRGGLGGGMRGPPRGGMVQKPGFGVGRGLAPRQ
Method: RNA Bind-n-Seq
Form: RNA
Sample: in vitro
Concentration: 1 µM
Setting: whole 134-nt RNA, ends assumed
Added: 150 mM KCl
Relative to: input library
Reading: higher = stronger binding
All sequences stand within: GGGAGUUCUACAGUCCGACGAUC … UGGAAUUCUCGGGUGUCAAGG
Oligonucleotide	log2 enrichment
UCCUGUGCUACACAUCGUAUGUACCGAAUCGGGGUUUUUGGGGUUUUUGGGGUUUGGGGAAAGUAUUAUGUUACGCCGUUCGGAUCUGCA	1.25
CUCAAGUCCUGUGCUACACAUCGUAUGUACCGAAUCGGGAAGGAAGGGAAGGGAAAGUAUUAUGUUACGCCGUUCGGAUCUGCACUUCCA	-0.116
UCCUGUGCUACACAUCGUAUGUACCGAAUCGGGGUUUUUGGGGAAAAAGGGGUUUGGGGAAAGUAUUAUGUUACGCCGUUCGGAUCUGCA	1.24
UGGCCCUGGUGGCAUUCGGGGAGGAAGAGGUGGCCUCAUGGAUCGUGGUGGUCCCGGUGGAAUGUUCAGAGGUGGCCGUGGUGGAGACAG	0.869
UCAAGUCCUGUGCUACACAUCGUAUGUACCGAAUCGGAAAAAGGAAAGGAAAGGAAAGUAUUAUGUUACGCCGUUCGGAUCUGCACUUCC	-0.291
CACAGACAACACGCACCCACACAGCCACAGAGGGAAGGGGUUGGGAUGGGGACAGGGUGCACAGCAGGGCGGGGUAGGACCCCAGCCCCU	0.123
AAGUCCUGUGCUACACAUCGUAUGUACCGAAUCGGGUUUUUGGGAAAGGGUUUGGGAAAGUAUUAUGUUACGCCGUUCGGAUCUGCACUU	0.428
GCAGGAAGUAAAAACAAAUGGAAAUGCUUCGGAUAGUGGCAGGGGUGGGGGUUGCUAUGGAAAGGGUGGGAUGGGAGUGGGUAAAGAGUU	1.55

Further values, each from its own experiment
Compound	target	assay	conditions	how to read	quantity	value
CCOC(=O)c1c(C)[nH]c(/C=C2\C(=O)Nc3ccccc32)c1C	Tyrosine-protein kinase TXK (TXK, Homo sapiens, UniProt P42681)	enzyme activity, inhibitor	0.5 µM	relative to: control	remaining activity	96.1%

For quick reference, copied from above (block 3):
Oligonucleotide	log2 enrichment
UCCUGUGCUACACAUCGUAUGUACCGAAUCGGGGUUUUUGGGGUUUUUGGGGUUUGGGGAAAGUAUUAUGUUACGCCGUUCGGAUCUGCA	1.25
CUCAAGUCCUGUGCUACACAUCGUAUGUACCGAAUCGGGAAGGAAGGGAAGGGAAAGUAUUAUGUUACGCCGUUCGGAUCUGCACUUCCA	-0.116
UCCUGUGCUACACAUCGUAUGUACCGAAUCGGGGUUUUUGGGGAAAAAGGGGUUUGGGGAAAGUAUUAUGUUACGCCGUUCGGAUCUGCA	1.24
UGGCCCUGGUGGCAUUCGGGGAGGAAGAGGUGGCCUCAUGGAUCGUGGUGGUCCCGGUGGAAUGUUCAGAGGUGGCCGUGGUGGAGACAG	0.869
